Assay results collected from several papers.
Numbered parts are unrelated; each lists some results of a single study. Positions count from the first letter of the parent shown.

Set 1
Target: CRIPT, C-terminal peptide
Technique: DHFR complementation, deep sequencing
Medium: yeast
Notes: single substitutions, model-inferred values
Relative to: wild type
Reading: higher = weaker binding
Starting sequence: ERBIN, PDZ domain 1 (human); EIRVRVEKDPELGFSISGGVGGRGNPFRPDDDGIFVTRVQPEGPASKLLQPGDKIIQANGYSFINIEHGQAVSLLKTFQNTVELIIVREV; partner TKNYKQTSV
Variant	binding free energy change [kcal/mol]
V72F	1.47
L75E	0.549
N65V	0.131
G13R	0.483
R38C	0.0902
V39T	0.33
I85Y	-0.0477
N59A	0.164

Set 2
Target: POU, POU domain (Salpingoeca helianthica)
Technique: Spec-seq
Form: double-stranded DNA, one strand shown
Medium: in vitro
Tested at: not given
Notes: whole probe, mean of replicates
Relative to: not given
Reading: lower = stronger binding
Shared flanks, not repeated: GAGTCGTCTCGTCAGCAC … CCGTAGAGCACTCAGGTC
Construct (chain): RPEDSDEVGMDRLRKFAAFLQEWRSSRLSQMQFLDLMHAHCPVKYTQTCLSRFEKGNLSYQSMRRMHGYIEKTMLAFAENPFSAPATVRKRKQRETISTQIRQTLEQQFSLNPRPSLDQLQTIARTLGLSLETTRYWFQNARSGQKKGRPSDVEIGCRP
Strand	relative binding energy
ATGATAAT	0.325 ln ratio
ATACGGAT	1.17 ln ratio
ATGCACCT	1.2 ln ratio
ATGTCTAT	1.15 ln ratio
ATTTCTAT	0.976 ln ratio
AACGTAAT	0.584 ln ratio
ATGCGAGA	1.27 ln ratio
CGATTAAT	-0.322 ln ratio

Set 3
Target: Phosphate system positive regulatory protein PHO4, full length, GST-tagged (PHO4, Saccharomyces cerevisiae, UniProt P07270, residues 1-312)
Technique: competition protein-binding microarray
Form: double-stranded DNA, one strand shown
Medium: in vitro
Tested at: 2 µM
Notes: whole 60-bp probe, lowest competitor level
Added: Cbf1 competitor, 0.05 µM
Reading: higher = stronger binding
Target sequence (chain): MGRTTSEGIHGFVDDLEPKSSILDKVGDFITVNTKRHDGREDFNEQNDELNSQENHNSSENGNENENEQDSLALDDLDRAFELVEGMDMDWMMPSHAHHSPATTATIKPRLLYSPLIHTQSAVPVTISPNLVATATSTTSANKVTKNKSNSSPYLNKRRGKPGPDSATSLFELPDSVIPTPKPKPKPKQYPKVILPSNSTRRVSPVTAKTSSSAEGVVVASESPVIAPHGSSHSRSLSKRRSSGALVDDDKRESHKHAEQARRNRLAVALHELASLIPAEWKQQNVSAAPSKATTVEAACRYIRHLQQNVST
Strand	fluorescence intensity
GCGGAAGACGCGCGAAACGTGAAACATTTTGCATGGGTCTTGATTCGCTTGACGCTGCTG	8950 a.u.
GCCGCCATTCCCCATCACAATTTTGGGCAGGATAGGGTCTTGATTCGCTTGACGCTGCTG	3540 a.u.
ACTTGAGTCAAAAGGCATGTGCGCCTCTTGTTATCTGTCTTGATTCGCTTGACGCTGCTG	12400 a.u.
CTTCTGTAAATTTGCATAGTGGGTGGACGCGCCCCGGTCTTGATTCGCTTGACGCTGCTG	4160 a.u.
GATCAAACTGAGGATGACCTGGACATCTTGGTCGCTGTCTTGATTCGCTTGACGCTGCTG	2720 a.u.
CTTTCCCGATCTTTTCACGTGGAATTAGCACATTTGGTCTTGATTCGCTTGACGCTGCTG	13400 a.u.
AAATTACTAAGTTGGCAAGTGGGTGACGCCGTATGAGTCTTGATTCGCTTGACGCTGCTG	4090 a.u.
TGCGCAACAACTTGGGGCGTGGGTGTATGTCTAGAAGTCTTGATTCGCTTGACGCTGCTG	8930 a.u.

Other studies, line by line
Starting sequence: viral docking peptide; KGVKRKLFAEDSS
Variant	target	assay	system	setting	scale	measurement	result
D11A	CCND2, cyclin fold, Cln2 fusion (human)	yeast growth competition, sequencing	yeast	weak parent motif	relative to: not given, higher = stronger binding	normalised enrichment score	0.119

Excerpt of the above (set 3):
Strand	fluorescence intensity
CTTCTGTAAATTTGCATAGTGGGTGGACGCGCCCCGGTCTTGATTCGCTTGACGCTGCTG	4160 a.u.
